# Measurements from different studies.
# Lines come from different studies, so protocols differ. ± gives the spread as reported.
Structure (SMILES),tested on,assay,test system,conditions,how to read,endpoint,result
O=C(N/N=C/c1ccc(C[n+]2ccccc2)cc1)C(=O)N/N=C/c1ccc(C[n+]2ccccc2)cc1,telomeric G4 DNA hybrid-2,FRET melting,,"1 µM, DNA 0.2 µM, together with: duplex DNA competitor 10 µM",,ΔTm,2.1 ± 1.6 °C
Nc1ncc(-c2cc(-c3cnn(CC(F)(F)F)c3)ncc2F)nc1C(=O)NC1CNCC(F)C1 (stereo not shown),LZK,KINOMEscan competition binding,,1 µM,relative to: DMSO control,remaining binding,100%
C=CC(=O)Nc1cccc(Cn2ncc3cnc(Nc4cnn(CCOC)c4)nc32)c1,MARK3 human,"binding, KINOMEscan",,100 nM,lower = stronger binding,percent of control,100%
C[n+]1ccc(/C=N/NC(=O)N/N=C/c2cc[n+](C)cc2)cc1,telomeric G4 DNA hybrid-2,FRET melting,,"1 µM, DNA 0.2 µM, together with: duplex DNA competitor 10 µM",,ΔTm,1.6 ± 0.2 °C
C=CC(=O)N1[C@@H](c2ccc3c(c2)OCO3)c2[nH]c3ccccc3c2C[C@H]1C(=O)N1CCN(C)CC1,human cyclin E1 N112C-3xFLAG:CDK2,"co-IP with TMT proteomics, item: SRP9",,"concentration not given, P49458",relative to: wild type DMSO,relative co-enrichment,106%
CC(=O)[O-].O.O.O.O.[Co+2].[O-]c1ccc(Br)cc1C=NCCN1CCOCC1,,DPPH radical scavenging,,120 µM,,inhibition,47.8%
CNS(=O)(=O)Nc1nccc(Cc2c(C)c3ccc(Oc4ncccc4F)cc3oc2=O)c1F,AMO1,cell viability,,7 days,,IC50,> 1000 nM
COC1CN([C@H]2CC[C@H]([C@@]3(C)Oc4c(Cl)cc(C(=O)NCc5c(SC)cc(C)[nH]c5=O)c(C)c4O3)CC2)C1,,"RNA-seq, item: HEMGN","human, whole blood","dose not given, 24 h",relative to: pretreatment baseline,log2 fold change,1.4
CC[n+]1cccc2cc(/C=N/NC(=O)N/N=C/c3ccc4c(ccc[n+]4CC)c3)ccc21,telomeric G4 DNA hybrid-2,FRET melting,,"1 µM, DNA 0.2 µM",,ΔTm,8.7 ± 0.2 °C
C=C(NC(=O)c1csc(-c2nc3c(cc2O)-c2nc(cs2)C(=O)NC(C(C)O)C(=O)NC(=C(C)OC)c2nc(cs2)C(=O)NC2c4nc(cs4)C(=O)NC(COC(=O)c4c5c6c(cccc6n4O)COC(=O)C(OC4CC(C)(O)C(N(C)C)C(C)O4)C2OC5)c2nc-3cs2)n1)C(N)=O (stereo not shown),Enterococcus faecalis,,"vancomycin-intermediate, 10 isolates",pH 8.5,,MIC50,0.0312 µg/mL
CN1CCCNC(=O)c2cccc(c2)C(=O)NCCCN(C)CCCNc2cccc3c2C(=O)c2cccc(c2C3=O)NCCC1,SAS,"RNA-Seq, item: PDP2 mRNA",,"1 µM, 6 h",relative to: untreated cells,log2 fold change,0.624
CC(C)(C)c1cc(-c2ccc3cccnc3n2)nc(-c2ccc3cccnc3n2)c1.COc1ccncc1.[Cl-].[Cl-].[Ru+2].c1ccc2cc3nc4c5cccnc5c5ncccc5c4nc3cc2c1,B16-F10,resazurin,,"together with: light 523 nm, 20 mW, 100 J/cm2",,EC50,1470 nM
C[n+]1ccc(/C=N/NC(=O)c2cc(C(=O)N/N=C/c3cc[n+](C)c4ccccc34)ncn2)c2ccccc21,telomeric G4 DNA hybrid-2,FRET melting,,"1 µM, DNA 0.2 µM, together with: duplex DNA competitor 10 µM",,ΔTm,4.7 ± 0.4 °C
N=C(N)NCCC[C@@H]1NC(=O)[C@H](CCCNC(=N)N)NC(=O)[C@@H](C(c2ccccc2)c2ccccc2)NC(=O)[C@H](Cc2c[nH]c3ccccc23)NC(=O)[C@@H](C(c2ccccc2)c2ccccc2)NC(=O)[C@@H](CCCNC(=N)N)NC(=O)[C@@H](CCCNC(=N)N)NC1=O,Aspergillus fumigatus,,Af 293,"4 x MIC, 8 h",,reduction of viable cells,> 85%
CC[n+]1cccc2cc(/C=N/NC(=O)c3ccc4ccc5ccc(C(=O)N/N=C/c6ccc7c(ccc[n+]7CC)c6)nc5c4n3)ccc21,telomeric G4 DNA hybrid-2,FRET melting,,"1 µM, DNA 0.2 µM",,ΔTm,36 ± 1.1 °C
Cc1ncsc1-c1ccc(C(C)NC(=O)C2CC(O)CN2C(=O)C(NC(=O)CCCCCCCCCCN2CCCC(Nc3ncc(Cl)c(Nc4ccccc4S(=O)(=O)C(C)C)n3)C2)C(C)(C)C)cc1 (stereo not shown),22Rv1,"RNA-seq, item: NABP1 mRNA",,concentration not given,relative to: DMSO,log2 fold change,-2.46

# Some of these lines once more:
Structure (SMILES),tested on,assay,test system,conditions,how to read,endpoint,result
COC1CN([C@H]2CC[C@H]([C@@]3(C)Oc4c(Cl)cc(C(=O)NCc5c(SC)cc(C)[nH]c5=O)c(C)c4O3)CC2)C1,,"RNA-seq, item: HEMGN","human, whole blood","dose not given, 24 h",relative to: pretreatment baseline,log2 fold change,1.4
